Results collected from several papers.
Lines come from different studies, so protocols differ. ± marks the error that the study gave.

CC(CCC(=O)NCc1ccc(C(=O)NCc2ccc(C(=O)NO)cc2)cc1)C1CCC2C3C(O)CC4CC(O)CCC4(C)C3CCC12C (stereo not shown)  acetylated α-tubulin level (HDAC6; immunoblotting; cystic human cholangiocytes; 2 µM, 24 h): increased
Cc1sc2ncn(CC(=O)N3CCCC3)c(=O)c2c1-c1cccc(Br)c1  unitary current amplitude 3 (NMDA receptor, mouse; single-channel current, outside-out patch; cortical neurons; concentration not given, holding -80 mV, added: Ca2+ 0.5 mM): -2.27 ± 0.65 pA
CC(=O)N[C@@H](CC(N)=O)C(=O)NCC(=O)N[C@@H](C)C(=O)N[C@@H](C)C(N)=O  rate constant k1 (Asn-Gly peptide isomerisation to succinimide; 1H NMR time course; pH 7.4, 37 °C): 0.027 h⁻¹
Cc1ccc(NC(=O)c2c(C)oc3ccc(O)c(CN4CCCCCC4)c23)cc1  PCR amplification inhibition (MYC Pu27 G-quadruplex DNA; PCR stop; concentration not given): inhibited
CCCCC/C=C/C(=O)CCc1ccc(O)c(OC)c1  IC50 (mAb 6-AT6; antibody binding, indirect competitive ELISA; added: coating antigen 2-OVA): > 4 µg/mL
CN(C)CCCNC(=O)c1cc(NC(=O)c2cc(NC(=O)c3cc(NC(=O)c4nc(NC(=O)[C@H](N)CCNC(=O)c5cc(NC(=O)c6cc(NC(=O)c7nc(NC(=O)c8nccn8C)cn7C)cn6C)cn5C)cn4C)cn3C)cn2C)cn1C  melting temperature (12-mer DNA duplex; DNA binding, UV thermal denaturation; 2.4 µM, pH 7.0, mismatch base pair C·G, added: DNA duplex 2 µM): 72.3 ± 0.3 °C
C[N+](C)(CBr)CC(=O)O  EC50 (TMA lyase; TMA production, whole-cell; Proteus mirabilis, wild type): 1300 nM
COc1cc(/C=C/C(=O)OCCCC[P+](c2ccccc2)(c2ccccc2)c2ccccc2)ccc1O  glutathione peroxidase activity (glutathione peroxidase, rat; rat mitochondria; 10 µM, 15 and 30 min): increased
CC(C)c1cnc(-c2cc(Cl)ccc2F)cc1Nc1ccncc1C(=O)NC(CO)CO  IC50 (TGF-β receptor type 1 (human); SMAD2 Ser465/467 phosphorylation, inhibitor; human PBMC; total drug, added: TGF-β): 151 ± 20.6 nM
CN(C)CCCNC(=O)c1cc(NC(=O)c2cc(NC(=O)c3cc(NC(=O)c4nc(NC(=O)[C@H](N)CCNC(=O)c5cc(NC(=O)c6cc(NC(=O)c7nc(NC(=O)c8nccn8C)cn7C)co6)co5)cn4C)cn3C)cn2C)cn1C  melting temperature (12-mer DNA duplex; DNA binding, UV thermal denaturation; 2.4 µM, pH 7.0, match base pair T·A, added: DNA duplex 2 µM): 74.6 ± 1 °C
O=C(/C=C/c1ccc(O)c(O)c1)OCCCC[P+](c1ccccc1)(c1ccccc1)c1ccccc1  glutathione peroxidase activity (glutathione peroxidase, rat; rat mitochondria; 10 µM, 15 and 30 min): increased
CN(C)CCCNC(=O)c1cc(NC(=O)c2cc(NC(=O)c3cc(NC(=O)c4nc(NC(=O)[C@H](N)CCNC(=O)c5cc(NC(=O)c6cc(NC(=O)c7nc(NC(=O)c8nccn8C)cn7C)co6)cn5C)cn4C)cn3C)cn2C)cn1C  melting temperature (12-mer DNA duplex; DNA binding, UV thermal denaturation; 2.4 µM, pH 7.0, match base pair T·A, added: DNA duplex 2 µM): 77.1 ± 0.8 °C
Cc1c(OCc2ccccc2)c(=O)ccn1CCCOC(=O)c1ccccc1Cl  inhibition (β-hematin formation; 200 µg/mL, 24 h, 60 °C): 34%
C1=[N+]2CCC[N+]3=Cc4ccc5[n]4[Au-]23[n]2c1ccc2-c1nc2ccccc2nc1-5.F[P-](F)(F)(F)(F)F  delta Tm (dsDNA fragment human ACTN3 291 bp; DNA melting; 50 µM): 4.65 °C
NS(=O)(=O)c1ccc(-n2nc(C(F)(F)F)cc2-c2ccc(F)cc2F)cc1  selectivity ratio (dog COX-1 and COX-2; dog whole blood; baseline: IC50 COX-1 over COX-2): 19.4
CN(C)CCCNC(=O)c1cc(NC(=O)c2cc(NC(=O)c3cc(NC(=O)c4nc(NC(=O)[C@H](N)CCNC(=O)c5cc(NC(=O)c6cc(NC(=O)c7nc(NC(=O)c8nccn8C)cn7C)cn6C)co5)cn4C)cn3C)cn2C)cn1C  melting temperature (12-mer DNA duplex; DNA binding, UV thermal denaturation; 2.4 µM, pH 7.0, mismatch base pair C·G, added: DNA duplex 2 µM): 70 ± 0.4 °C
COc1cc2nnn(C(=O)N3COCC3(C)C)c2cc1OC  remaining activity (carboxylesterases (rat); inhibitor; rat liver microsomes; 10 µM; baseline: control): 72 ± 5%
CC(=O)N[C@@H](CC(N)=O)C(=O)NCC(=O)N[C@@H](CCCNC(=N)N)C(=O)N[C@@H](C)C(N)=O  rate constant k1 (Asn-Gly peptide isomerisation to succinimide; 1H NMR time course; pH 7.4, 46 °C): 0.0535 h⁻¹
Br.Br.O=c1c(O)cccn1CCN1CCN(CCn2cccc(O)c2=O)CC1  log β (Fe(III); mono-HOPO complex formation; 25 °C, ionic strength 0.10 M): 14.6
C=C(CC)C(=O)c1ccc(OCC(=O)NCCNC(=O)COc2ccc(C(=O)C(=C)CC)c(Cl)c2Cl)c(Cl)c1Cl  inhibition (glutathione S-transferase, human; enzyme activity; SGC-7901 cell lysate; 0.2 µM): ~80%
C[N+](C)(CI)CCO  EC50 (TMA lyase; TMA production, whole-cell; Proteus mirabilis, wild type): 1.5 nM
O=C1CO[C@H](CNC(=O)C2(c3ccc(Cl)cc3)CC2)CN1C1Cc2ccccc2C1  activity (other chemokine receptors; β-arrestin recruitment; 1 µM): inactive
C[N+](C)(CCl)CC(=O)O  EC50 (TMA lyase; TMA production, whole-cell; Proteus mirabilis, wild type): 5000 nM
COC1CCC(Nc2nc(-c3nccn3C)nc3sc(-c4ccn(C)n4)c(-c4ccccc4)c23)C1 (stereo not shown)  IC50 (Ras; Ras-GTP formation, inhibitor, GTP pull-down; MIA PaCa-2; 6 h, added: EGF 15 min): 1000 to 3000 nM
C[C@H](NC(=O)CNC(=O)[C@@H]1CSSC[C@H](NC(=O)[C@H](C)NC(=O)CN)C(=O)N[C@@H](CCCNC(=N)N)C(=O)N[C@@H](CCCNC(=N)N)C(=O)N[C@@H](CCC(=O)O)C(=O)N[C@@H]([C@@H](C)O)C(=O)N[C@@H](C)C(=O)N[C@@H](Cc2c[nH]c3ccccc23)C(=O)N[C@@H](C)C(=O)N1)C(=O)O  minimum coating concentration (integrin alpha-v beta-1; cell attachment; alpha-v beta-1-expressing cells, peptide coated on plastic): 1 mg/mL
CO[C@@H]1[C@H](O)[C@@H](COP(=O)(O)OP(=O)([S-])OP(=O)(S)OC[C@H]2O[C@@H](n3cnc4c(=O)[nH]c(N)nc43)[C@H](O)[C@@H]2O)O[C@H]1n1c[n+](C)c2c(O)nc(N)nc21 (stereo partly shown)  decapped RNA (Schizosaccharomyces pombe Dcp1/Dcp2; substrate; 5 to 15 min, RNA capped with compound): 10 to 30%
CCCCN1C(=O)c2cccc3c(NCCCCCCN4CCOCC4)ccc(c23)C1=O  blue shift of emission maximum (lysosomes; BHK-21; lysosomal micro-polarity; baseline: water): 32 nm
Nc1c2[nH]nc3c2nc[n+]1[C@@H]1O[C@H](COP(=O)(O)OP(=O)([O-])OC[C@H]2O[C@@H]3[C@H](O)[C@@H]2O)[C@@H](O)[C@H]1O  activity class (cADPR receptor; Ca2+ release, fura fluorimetry; permeabilised Jurkat T cells; concentration not given): active
COc1cc(CCC(C)=O)ccc1O  IC50 (mAb 6-AT6; antibody binding, indirect competitive ELISA; added: coating antigen 6-OVA): > 4 µg/mL
NC[C@@H]1O[C@H](O[C@H]2[C@@H](O)[C@H](O[C@@H]3[C@@H](O)[C@H](N)C[C@H](N)[C@H]3O[C@H]3O[C@H](CN)[C@@H](O)[C@H](O)[C@H]3N)O[C@@H]2CO)[C@H](N)[C@@H](O)[C@@H]1O  affinity ratio (AT-rich DNA; FID; baseline: triplex over duplex): 2 to 3 orders of magnitude
CC(=O)N[C@@H](CC(C)C)C(=O)N[C@H](C(=O)N[C@@H](Cc1ccccc1)C(=O)N[C@]1(C)CCCCCCC=CCCC[C@@](C)(C(=O)N[C@@H](CO)C(=O)N[C@@H](C)C(=O)N[C@@H](C)C(N)=O)NC(=O)[C@H](CC2CCC2)NC(=O)[C@H](CCC(N)=O)NC(=O)[C@H](C)NC(=O)[C@H](Cc2c[nH]c3ccccc23)NC(=O)[C@H](Cc2ccc(O)cc2)NC(=O)[C@H](CCC(=O)O)NC1=O)[C@@H](C)O  EC50 (p53; reporter gene, activator; HCT-116 p53 reporter; 16 h, 2% FBS): 4200 nM
